Results of several laboratories.
Every numbered part comes from another study and shows a few of its results, in no order.

Set 1 — method: RNA Bind-n-Seq; molecule type: RNA; medium: in vitro; concentration: 365 nM; reference: no-protein control; direction: higher = stronger binding
Target: RNA binding protein fox-1 homolog 2, RRM domain, GST-SBP tag (RBFOX2, Homo sapiens, UniProt O43251-10, residues 100-194)
Setting: natural RNA segment, single round, ends assumed
All sequences stand within: GGGAGUUCUACAGUCCGACGAUC … UGGAAUUCUCGGGUGCCAA
Construct (chain): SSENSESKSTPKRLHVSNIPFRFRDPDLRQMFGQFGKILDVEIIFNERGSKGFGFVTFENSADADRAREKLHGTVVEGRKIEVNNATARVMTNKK
Sequence	RBNS enrichment (R)
AUAAAUAAAAGUAAAUACUAUAAUACAAAGUUCCUUCUGAAAUAAAAGUAGAUCUGGUAAAAAUGUGCGUGCGUUUCGUUCUGAAUGUUCAAUGCUAAUUUUGUUUUAUU	0.573
UACCACCUGGUGCCUCACUGUCAAACUGAACGAGGGGGUGUGGCCAUGGCCUGAGCCACUGUUCUGGGAGCAGAAGGCAGCUCACUGCCCCCCCCCACACACACACCGAC	0.194
AAGGCUACCUUGAAAUCCAGAAAAUCCAAUCCUAAGUCAACUGCUUGGUGAAGGAGACAAGCAGUCAGCGGAGAAUCUGAUGGUGGAAAAGCUACAGCGACAGACGGCCA	0.451
AACCCAAAUCUAAUGUUCAUGUGUUCAAGGAACCUUCUUCCAUUAUGUAACAGAACAGUCUAGAGAAGAUUAAGGACCACAUGGCUUUCUUGCUCUACUUGAAAUUAAUU	0.508
CAGGCAAAAGAUCCACUCCUUCCCACACUCAUUUGCCUGAACUUACUCGAAGGGCUGCAUUUCUCUGAGUUUACGAAAUUGUGUCAUUAUGGUCCCCAUACAGUGGUAUU	2.61
UGGCCAGGUCUCACCACCUCAGUGUGCAGUUCAACUCCAUGCCAUCCCAUCAAGAUGGGUUAGUAGCAGUGUCUGUUUUUGAAUGCCAAGUGUGAUUUCCAACAAUUCUG	0.373
CCCCUUCUCUGUCCCCCAUUCUCUGAAUGCUGCUUUCUCUGGCUUGUUUCCUACAGUGGGGGCCUGUGGGGUUGAGUCUUGAGGAAUCCCCUCAAAUGAGAAGGCCUUGG	0.531

Set 2 — method: protein binding microarray; molecule type: double-stranded DNA, one strand shown; medium: in vitro; concentration: not given; reference: not given; direction: higher = stronger binding
Target: Histone acetyltransferase KAT6A, winged helix 1, GST fusion (KAT6A, Homo sapiens, UniProt Q92794, residues 1-85)
Setting: 8-mer, flanks averaged, mean of 2 arrays, mostly near background
Construct (chain): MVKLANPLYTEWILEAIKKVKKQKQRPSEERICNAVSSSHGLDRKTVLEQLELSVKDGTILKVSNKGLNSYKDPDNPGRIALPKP
Sequence	E-score
AAAAGCAA	-0.16
CTTCTCCA	-0.168
TAGTATAA	-0.0465
CCCGATTC	0.0598
GGCTGAGA	-0.146
ACAATGAT	-0.069

Set 3 — method: RNA Bind-n-Seq; molecule type: RNA; medium: in vitro; concentration: not given; reference: input RNA pool; direction: higher = stronger binding
Target: RING finger protein unkempt homolog, zinc fingers 1-6, GST-SBP tag (UNK, Homo sapiens, UniProt Q9C0B0, residues 30-357)
Setting: RNA with constant flanks, human-mouse chimeric sites, ends assumed
All sequences stand within: GGGAGUUCUACAGUCCGACGAUC … CAACAGAGGAUUGAGCAUCA
Target sequence (chain): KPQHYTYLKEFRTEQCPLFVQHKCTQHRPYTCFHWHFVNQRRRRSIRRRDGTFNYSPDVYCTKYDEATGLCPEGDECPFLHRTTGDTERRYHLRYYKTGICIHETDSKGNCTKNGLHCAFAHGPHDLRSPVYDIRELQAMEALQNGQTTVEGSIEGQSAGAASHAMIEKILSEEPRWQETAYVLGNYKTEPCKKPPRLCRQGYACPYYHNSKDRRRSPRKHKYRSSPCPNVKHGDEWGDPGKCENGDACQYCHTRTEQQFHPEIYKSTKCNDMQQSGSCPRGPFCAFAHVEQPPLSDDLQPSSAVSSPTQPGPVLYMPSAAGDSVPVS
Sequence	bound/input enrichment [ratio]
ACAGUUAUAUUGUUGAGUUUCAUUUUCAUAUAUUCUUGUAGUGUCUGCUUGCCUGUGACUUCUGGUAAAAUAAAAUAAGCCUUUGAAUUAGCAUGCUCAUGGUAUUUAACAUUUUCUAAA	0.848
UCUGGUCACACUCGUGUGUAUGGUGUUUGCUUUGUGGACACUUCACUGGGAAAGUUUUUCAUAGGUCAGUUUUCGGAUGACCGCCACUGUUCCAGAUUUAGGACGCUAGUGGCUCACUAU	0.378
AGAGAAAUGAGAAAGAAUCUUACACAAGAAGAGAUGCAAAGAAUGUCUACUAGAGUCCUUUUAGCCACUCUUUCCAUCCCUAUUACUCCUGAGCGAACUGAUAUUGCUCGACUUUUGGAU	0.0797
ACUCAGAGAUCCACCUCCCAAAGUGCUGGGAGUAAAGUCUGAUAUUACACACCUAACUUGAUGGAUAUAUAUUUUUUUUAAUAUGAAUCUUCCUGUUCGUCCAGGGAAGAAAGAUUUGUU	0.863
AUGGAACAUUUCGAUGCAUCACUUAGUACCUAUUUCAAGGCCUUCCUGGGCCCCCGAGAUACAAGAGUCAAAGGAUGGUUCCUCCUGGACAAUUACAUACCCACAUUUGUCUGUUCUGUU	0.286
CGCAGAAGGUUAAAGGGUGAAAAUGGGGUGGAAGACUGUGUCAUGGCUCUGGAGACACUGUUCAGUGUCCUGCUUUCUCUGUGCAGACUGAUGGCCCCUUACACGCCCUUUCUGACUGAG	0.0554

Other studies, line by line
Molecule	target	test	system	setting	scale	endpoint	value
PhoQ, residues 284 288 289 292 302 303 SSTMSV	PhoP, residues 12 14 15 18 19 YHFSH (Escherichia coli, UniProt P23836)	Sort-seq, measured: YFP reporter	E. coli	PhoQ-PhoP variant library, added: 10 µM Mg2+	reference: high Mg2+ state, higher = stronger signaling	fold induction	8.5
